Measured values gathered from unrelated publications.
Every numbered part comes from another study and shows a few of its results, in no order. Changes are numbered by the printed parent chain.

Sample 1 — read-out: peptide-MHC binding; molecule type: peptide; concentration: concentration not given
Target: HLA class I histocompatibility antigen, A alpha chain, allele A*26:03 (Homo sapiens, UniProt P04439)
`FEIGNGDAG`: binding “inactive”.
For `IATLYCVHQR`, binding read “inactive”.
Under binding, `HEVHAVWPG` is recorded as “inactive”.
`VQKVNPAPK` — result for binding: “inactive”.
`ETPGSTDNY` — result for binding: “inactive”.
`AEILSGRVI`: binding “inactive”.
`SLFTEQAFY`: binding “inactive”.
Under binding, `GEIGIRNWL` is recorded as “inactive”.
`EFKQILTDF` — result for binding: “inactive”.
For `KYFVRSTEK`, binding read “inactive”.
`YERGNIIIF`: binding “inactive”.
`IQRRGAQFQ`: binding “inactive”.
Under binding, `PRFGSCYFL` is recorded as “inactive”.
Under binding, `QGKQHLHSL` is recorded as “inactive”.

Sample 2 — target: CCND3, cyclin fold, Cln2 fusion (human); technique: yeast growth competition, sequencing; medium: yeast; notes: weak parent motif; baseline: not given; reading: higher = stronger binding
Starting sequence: viral docking peptide; YKVKRRLVFGADD; partner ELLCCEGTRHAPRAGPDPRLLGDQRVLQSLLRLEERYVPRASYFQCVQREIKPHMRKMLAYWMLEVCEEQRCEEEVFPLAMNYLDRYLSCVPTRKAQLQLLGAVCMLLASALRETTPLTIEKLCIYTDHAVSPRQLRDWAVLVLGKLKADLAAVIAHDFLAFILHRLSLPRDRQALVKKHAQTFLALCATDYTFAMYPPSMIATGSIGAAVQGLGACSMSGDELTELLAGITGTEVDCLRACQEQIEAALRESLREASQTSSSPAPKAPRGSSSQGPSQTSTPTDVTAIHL
`YKVSRRLVFGADD [K4S]` — result for “normalised enrichment score”: 0.225.
Under “normalised enrichment score”, `YKVKIRLVFGADD [R5I]` is recorded as 0.295.
`YKVKRRLVFGMDD [A11M]` — result for “normalised enrichment score”: 0.177.
Under “normalised enrichment score”, `YKVKRRYVFGADD [L7Y]` is recorded as -0.0935.
Under “normalised enrichment score”, `YKVKRRRVFGADD [L7R]` is recorded as 0.0363.
Under “normalised enrichment score”, `YKVKRRLDFGADD [V8D]` is recorded as 1.25.
For `YKVKWRLVFGADD [R5W]`, “normalised enrichment score” read -0.249.
`YKVKRWLVFGADD [R6W]`: “normalised enrichment score” -0.00227.
`YKLKRRLVFGADD [V3L]`: “normalised enrichment score” 0.633.
Under “normalised enrichment score”, `YKVKRRLVFQADD [G10Q]` is recorded as 0.285.
Under “normalised enrichment score”, `YKVKRRLVFGAPD [D12P]` is recorded as 0.0218.
For `YKVKRRLVFSADD [G10S]`, “normalised enrichment score” read -0.0044.
Under “normalised enrichment score”, `YKVKLRLVFGADD [R5L]` is recorded as -0.0855.
Under “normalised enrichment score”, `YKVKRRLPFGADD [V8P]` is recorded as -0.225.
`YKVERRLVFGADD [K4E]` — result for “normalised enrichment score”: -0.291.
Under “normalised enrichment score”, `YKWKRRLVFGADD [V3W]` is recorded as -0.382.
For `YKVKRRLVFGSDD [A11S]`, “normalised enrichment score” read 0.275.
`YTVKRRLVFGADD [K2T]`: “normalised enrichment score” 0.383.
Under “normalised enrichment score”, `YKVKRRLVFFADD [G10F]` is recorded as -0.224.
`YKVKRRLVFGQDD [A11Q]`: “normalised enrichment score” -0.223.
For `YKVKRRIVFGADD [L7I]`, “normalised enrichment score” read 0.26.
Under “normalised enrichment score”, `YKVKRRLVFPADD [G10P]` is recorded as 0.365.
For `YKKKRRLVFGADD [V3K]`, “normalised enrichment score” read 0.0758.
`YKVKRRCVFGADD [L7C]`: “normalised enrichment score” -0.289.
`YKVKGRLVFGADD [R5G]` — result for “normalised enrichment score”: -0.155.

Sample 3 — technique: aptamer microarray, sandwich; molecule type: DNA with 2'F-ANA; medium: in vitro; concentration: 200 nM; added: Cy3 exosite-II aptamer, 400 nM; reading: higher = stronger binding; sequence: GGTTGGTGTGGTTGG
Target: Prothrombin, mature alpha-thrombin (F2, Homo sapiens, UniProt P00734)
Notes: whole 15-mer aptamer, many near background
For `2'F-ANA at 2 3 6 8 10 12 13`, “mean fluorescence intensity” read 370 a.u.
Under “mean fluorescence intensity”, `2'F-ANA at 1 4 7 9 11 12 13 15` is recorded as 134 a.u.
`2'F-ANA at 2 3 4 15` — result for “mean fluorescence intensity”: 717 a.u.
Under “mean fluorescence intensity”, `2'F-ANA at 1 4 5 6 9 11 13` is recorded as 48.2 a.u.
For `2'F-ANA at 2 10 11 12 13`, “mean fluorescence intensity” read 159 a.u.
`2'F-ANA at 2 4 5 6 8 9 10 13 14`: “mean fluorescence intensity” 53.5 a.u.
Under “mean fluorescence intensity”, `2'F-ANA at 1 2 4 5 7 9 12 13 14 15` is recorded as 49.1 a.u.
Under “mean fluorescence intensity”, `2'F-ANA at 2 4 8 10 12 13 15` is recorded as 99.6 a.u.

Sample 4 — technique: RNA Bind-n-Seq; molecule type: RNA; medium: in vitro; concentration: 365 nM; baseline: no-protein control; reading: higher = stronger binding
Target: RNA binding protein fox-1 homolog 2, RRM domain, GST-SBP tag (RBFOX2, Homo sapiens, UniProt O43251-10, residues 100-194)
Notes: natural RNA segment, single round, ends assumed
All sequences stand within: GGGAGUUCUACAGUCCGACGAUC … UGGAAUUCUCGGGUGCCAA
Construct (chain): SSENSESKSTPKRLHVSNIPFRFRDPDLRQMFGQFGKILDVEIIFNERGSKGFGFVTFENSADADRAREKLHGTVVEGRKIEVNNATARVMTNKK
`ACGGAAAAUUCCCCAGAUCACGUUUGGAUUUAAAAACUCAUCCCUUGUCGUGCUUCAAUGCAUGCCAUUUGUCACUUACCAUACUUCACCAUGGCCGAGCUUCAUGUCAC`: “RBNS enrichment (R)” 0.674.
`UAGCGUUUUGGUACACGGAUAAGAGACCUGAAAUUAGCCAGGGACCUCUGCUGUGUGUCUCUGCCAAUCUGCUGGGCUGGUCCCUCUCAUUUUUACCAGUCUGAGUGACA`: “RBNS enrichment (R)” 0.216.
`UGAGAGCGCCAAGGGUCUUUGCCAGCAAAGGAGGUUCUGCCUGUAAUUGAGCCUCUCUGAUGAUGGAGAUGAAGUGAAGGUCUGAGGGAGCGGGCCCUGGGGCGAGGCCA`: “RBNS enrichment (R)” 4.09.
`UCCAGAAGCCUUUGUAUUGGUUAAAAAUUAUUUUCCAUUGCAGAAGCAGCUGGACUAUGCAAAAAGUAUUUCUCUGUCAGUUCCCCACUCUAUACCAAGGAUAUUAUUAA`: “RBNS enrichment (R)” 1.12.
`CCAUCUCCCAGACCAAGGGGGCGAGGGGGUUGAGUGGAGUCUUCCCUUCAAAGCAGGGAAGAAUACCUGACUCGUUGCUUCGCAGAGCUGCUUUGACCUGCAGAGACUUG` — result for “RBNS enrichment (R)”: 0.319.
`UAUAGAAGAAUGCAUGCUUUCCAUAUUUUUUUCCUUACAUAAACAUCAGGUUAGGCAGUAUAAAGAAUAGGACUUGUUUUUGUUUUUGUUUUGUUGCACUGAAGUUUGAU`: “RBNS enrichment (R)” 12.2.
Under “RBNS enrichment (R)”, `GCCAAUCAGUUCUUAAUGAGGCACCUGUGUGUAAAUACAUGCUUGGUCUUCUCUGCAGAGAACUGAGGCUAAACUCUGUCCCUACUUCUGGUUUUGCCCUGUCAUGUCGU` is recorded as 0.26.
`UAAUGAAAGAACGUUGCAAAGAUCAUCUGCAUUAUAAUGAGUUGAUGCUGUUCUCACUCCUCUCUUGGAAUUGUGCUGGCCCCUUAGUCUACAAUAAACUGUGCCAAUUA`: “RBNS enrichment (R)” 2.79.

Repeated from above (sample 1):
For `KYFVRSTEK`, binding read “inactive”.
Under binding, `QGKQHLHSL` is recorded as “inactive”.
Under binding, `GEIGIRNWL` is recorded as “inactive”.
